Assay results of several laboratories.
Sequence of UniProt Q15303 (whole entry, looked up): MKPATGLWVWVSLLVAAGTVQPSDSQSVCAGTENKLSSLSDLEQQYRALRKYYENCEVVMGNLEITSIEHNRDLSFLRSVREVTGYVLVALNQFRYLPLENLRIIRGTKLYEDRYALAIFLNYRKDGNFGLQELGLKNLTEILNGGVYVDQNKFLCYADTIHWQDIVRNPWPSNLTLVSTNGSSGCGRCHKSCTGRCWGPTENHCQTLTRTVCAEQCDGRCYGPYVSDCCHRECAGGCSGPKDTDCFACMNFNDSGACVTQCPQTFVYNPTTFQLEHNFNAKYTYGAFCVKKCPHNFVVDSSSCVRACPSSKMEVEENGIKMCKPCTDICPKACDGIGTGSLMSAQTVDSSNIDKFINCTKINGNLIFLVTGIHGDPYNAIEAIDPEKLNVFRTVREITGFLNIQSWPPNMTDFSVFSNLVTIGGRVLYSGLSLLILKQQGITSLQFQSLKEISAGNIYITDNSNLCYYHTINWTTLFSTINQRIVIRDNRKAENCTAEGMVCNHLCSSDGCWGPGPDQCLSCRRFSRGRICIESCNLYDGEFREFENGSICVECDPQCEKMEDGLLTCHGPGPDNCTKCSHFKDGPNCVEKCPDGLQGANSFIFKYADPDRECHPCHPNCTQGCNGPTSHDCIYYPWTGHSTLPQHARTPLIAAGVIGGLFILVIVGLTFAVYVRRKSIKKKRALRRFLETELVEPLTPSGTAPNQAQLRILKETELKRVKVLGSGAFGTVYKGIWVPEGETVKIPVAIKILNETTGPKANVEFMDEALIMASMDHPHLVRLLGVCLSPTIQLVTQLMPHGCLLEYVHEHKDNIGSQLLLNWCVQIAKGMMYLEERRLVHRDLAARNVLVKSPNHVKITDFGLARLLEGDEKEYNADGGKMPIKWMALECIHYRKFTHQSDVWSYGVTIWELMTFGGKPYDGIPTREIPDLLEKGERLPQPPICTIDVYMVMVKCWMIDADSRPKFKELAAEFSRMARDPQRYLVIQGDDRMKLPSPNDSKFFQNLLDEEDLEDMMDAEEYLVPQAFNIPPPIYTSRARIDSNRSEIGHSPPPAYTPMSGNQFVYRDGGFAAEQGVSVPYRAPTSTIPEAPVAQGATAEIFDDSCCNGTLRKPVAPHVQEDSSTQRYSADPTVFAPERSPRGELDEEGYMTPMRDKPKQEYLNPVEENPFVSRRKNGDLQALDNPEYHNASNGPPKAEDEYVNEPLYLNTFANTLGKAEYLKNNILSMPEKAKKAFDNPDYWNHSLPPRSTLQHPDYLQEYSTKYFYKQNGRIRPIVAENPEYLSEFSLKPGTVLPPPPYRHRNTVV
Sequence of UniProt P21917 (whole entry, unmodified, looked up): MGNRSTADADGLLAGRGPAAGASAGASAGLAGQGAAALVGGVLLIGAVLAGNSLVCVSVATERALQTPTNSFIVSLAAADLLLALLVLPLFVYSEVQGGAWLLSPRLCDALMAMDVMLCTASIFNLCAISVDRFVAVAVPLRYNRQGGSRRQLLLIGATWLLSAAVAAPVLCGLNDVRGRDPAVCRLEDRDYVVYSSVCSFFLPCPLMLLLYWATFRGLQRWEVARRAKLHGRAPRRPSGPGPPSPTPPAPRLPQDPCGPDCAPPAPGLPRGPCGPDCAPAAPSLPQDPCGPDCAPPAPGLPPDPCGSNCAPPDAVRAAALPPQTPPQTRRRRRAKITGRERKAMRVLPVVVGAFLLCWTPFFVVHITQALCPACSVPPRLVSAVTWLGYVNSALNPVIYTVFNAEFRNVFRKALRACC

| SMILES | tested on | assay | test system | conditions | how to read | endpoint | result |
| --- | --- | --- | --- | --- | --- | --- | --- |
| CC[C@H](C)[C@H](NC(=O)[C@H](CC(C)C)NC(=O)[C@@H](NC(=O)[C@@H](NC(=O)[C@@H](NC(=O)[C@H](CCCCN)NC(=O)[C@H](CCCCN)NC(=O)[C@H](CCCCN)NC(=O)[C@@H](N)CCCCN)C(C)C)[C@@H](C)CC)[C@@H](C)CC)C(=O)N[C@@H](CO)C(=O)N[C@@H](CC(C)C)C(=O)N[C@@H](CCCCN)C(=O)N[C@@H](CCCCN)C(=O)N[C@@H](CCCCN)C(=O)N[C@@H](CCCCN)C(=O)N[C@@H](Cc1ccccc1)C(=O)N[C@@H](CO)C(=O)N[C@@H](C)C(=O)N[C@@H](Cc1ccc(O)cc1)C(N)=O | human erythrocytes |  |  | 400 µM, 1 h | relative to: Triton X-100 | hemolysis | 17% |
| OC(CCN1CC=C(c2ccc(F)cc2)CC1)c1ccc(F)c2ccccc12 (stereo not shown) | Salmonella typhimurium | SOS response, SOS/umu test | TA1535/pSK1002, TGA medium | 0.000488 mg/mL, 4 h, without S9 | relative to: untreated | induction factor | 0.8 |
| C[C@H]1CN(c2n[nH]c3nc(N[C@H]4CC[C@H](NS(=O)(=O)CCC(F)(F)F)CC4)ncc23)CCO1 | ERBB4 (Homo sapiens, UniProt Q15303) | inhibitor, Kinobeads competition profiling |  | 0.16 µM | relative to: vehicle | relative abundance | 1.06 |
| CC[C@H](C)[C@@H]1NC(=O)[C@@H]2CCCN2C(=O)[C@H](CC(C)C)NC(=O)[C@H](CC(C)C)NC(=O)CNC(=O)[C@@H](NC(=O)[C@@H](NC(=O)[C@H](CC(=O)O)NC(=O)CNC(=O)[C@@H](NC(=O)[C@H](C)NC(=O)CNC(=O)[C@H](CCCCN)NC(=O)[C@H](CC(C)C)NC(=O)[C@H](CC(C)C)NC(=O)[C@H](CCCCN)NC(=O)CNC(=O)[C@@H](NC(=O)[C@@H](N)CC(C)C)C(C)C)C(C)C)C(C)C)CSSC[C@@H](C(=O)O)NC1=O |  | RNA-seq, measured: Rd3 | mouse, traumatic brain injury model, frontal cortex and hippocampus | dose not given | relative to: TBI alone | log2 fold change | -2.26 |
| O=C1Nc2cc3[nH]nc(-c4ccncc4)c3cc2CN1Cc1ccccc1 |  | measured: Nausea | patients with advanced solid tumours | intravenous, dose not given, all schedules |  | patients with TEAE | 35% |
| C#Cc1ccc2c(c1)C(c1ccccn1)=NCc1c(-c3cnco3)ncn1-2.Cl |  | shake flask | 50 mM phosphate buffer | 24 h, pH 7, 25 °C |  | solubility | 644 µg/mL |
| CO[C@H]1C[C@@H]2CC[C@@H](C)[C@@](O)(O2)C(=O)C(=O)N2CCCC[C@H]2C(=O)O[C@H]([C@H](C)C[C@@H]2CC[C@@H](OC(=O)NCCOCCOCCOCCOCCOCCOCCOCCOCCC(=O)N3CCc4cc(Cn5nc(-c6ccc7oc(N)nc7c6)c6c(N)ncnc65)ccc4C3)[C@H](OC)C2)C[C@@H](O)[C@H](C)/C=C(\C)[C@@H](O)[C@@H](OC)C(=O)[C@H](C)C[C@H](C)/C=C/C=C/C=C/1C |  |  | patients with advanced solid tumours | intravenous, 12 mg weekly, grade 3 or higher |  | constipation incidence | 0% |
| COc1cc2c(Oc3ccc4[nH]c(C)cc4c3F)ccnc2cc1OCC1(N)CC1 |  |  | paediatric recurrent refractory sarcoma | 8 mg |  | grade 3 Dizzy | 0% |
| COc1cc(Nc2ncc(F)c(Nc3ccc4c(n3)NC(=O)C(C)(C)O4)n2)cc(OC)c1OC | DRD4 (Homo sapiens, UniProt P21917, del265-296) |  |  |  |  | IC50 | > 10 µM |
| CC[C@H](C)[C@H](NC(=O)[C@H](Cc1ccccc1)NC(=O)[C@H](CCC(=O)O)NC(=O)[C@H](CCCNC(=N)N)NC(=O)[C@H](C)NC(=O)[C@H](C)NC(=O)[C@H](CCC(N)=O)NC(=O)[C@H](CCC(=O)O)NC(=O)[C@H](CCC(=O)O)NC(=O)[C@H](CC(C)C)NC(=O)[C@H](Cc1ccc(O)cc1)NC(=O)[C@H](CO)NC(=O)[C@H](CO)NC(=O)[C@@H](NC(=O)[C@H](CC(=O)O)NC(=O)[C@H](CO)NC(=O)[C@@H](NC(=O)[C@H](Cc1ccccc1)NC(=O)[C@@H](NC(=O)CNC(=O)[C@H](CCC(=O)O)NC(=O)[C@H](C)NC(=O)CCc1c[nH]cn1)[C@@H](C)O)[C@@H](C)O)C(C)C)C(=O)N[C@@H](C)C(=O)N[C@@H](Cc1c[nH]c2ccccc12)C(=O)N[C@@H](CC(C)C)C(=O)N[C@H](C(=O)N[C@@H](CCCNC(=N)N)C(=O)NCC(=O)N[C@@H](CCCNC(=N)N)C(=O)N[C@@H](CCCCNC(=O)COCCOCCNC(=O)COCCOCCNC(=O)CC[C@H](NC(=O)CCCCCCCCCCCCCCCCC(=O)O)C(=O)O)C(=O)NCC(=O)NCC(=O)N[C@@H](CO)C(=O)N[C@@H](CCCCNc1c(NCCCCCN(O)C(=O)CCC(=O)NCCCCCN(O)C(=O)CCC(=O)NCCCCCN(O)C(C)=O)c(=O)c1=O)C(=O)O)C(C)C [zirconium-89 labelled] |  |  | rat, duodenum | iv, 3 nmol/kg, 24 h, ex vivo |  | tissue uptake | 0.2 %ID/g |
| CC[C@H](C)[C@H](NC(=O)[C@H](CCCNC(=N)N)NC(=O)[C@H](CCCNC(=N)N)NC(=O)[C@@H](N)CCCNC(=N)N)C(=O)N[C@@H](CO)C(=O)N[C@@H](Cc1ccccc1)C(=O)N[C@@H](CC(C)C)C(=O)NCC(=O)N[C@@H](CO)C(=O)N[C@@H](CCCCN)C(=O)N[C@H](C(=O)N[C@H](C(=O)N[C@H](C(=O)N[C@@H](CCCNC(=N)N)C(=O)N[C@@H](CCCNC(=N)N)C(=O)N[C@@H](CCCCN)C(=O)N[C@@H](CCCNC(=N)N)C(N)=O)C(C)C)C(C)C)C(C)C | human erythrocytes |  |  | 400 µM, 1 h | relative to: Triton X-100 | hemolysis | 9% |
| Cc1cc(C(=O)NC(C)(C)COc2cccc3c2C(N)=NS(=O)(=O)N3)cc(C)n1 | Salmonella typhimurium | Ames test, initial | TA98 | 1500 µg/plate, added: rat liver S9 | relative to: solvent control | revertant ratio | 1.1 |
| CN1CC[C@@H](c2c(O)cc(O)c3c(=O)cc(-c4ccc(C(F)(F)F)cc4Cl)oc23)[C@@H]1CO |  | measured: respiratory failure | B-cell malignancies | oral, 100 mg, grade 3 to 4, intermittent dosing |  | patients with adverse event | 0% |

Repeated from above:
| SMILES | tested on | assay | test system | conditions | how to read | endpoint | result |
| --- | --- | --- | --- | --- | --- | --- | --- |
| CC[C@H](C)[C@@H]1NC(=O)[C@@H]2CCCN2C(=O)[C@H](CC(C)C)NC(=O)[C@H](CC(C)C)NC(=O)CNC(=O)[C@@H](NC(=O)[C@@H](NC(=O)[C@H](CC(=O)O)NC(=O)CNC(=O)[C@@H](NC(=O)[C@H](C)NC(=O)CNC(=O)[C@H](CCCCN)NC(=O)[C@H](CC(C)C)NC(=O)[C@H](CC(C)C)NC(=O)[C@H](CCCCN)NC(=O)CNC(=O)[C@@H](NC(=O)[C@@H](N)CC(C)C)C(C)C)C(C)C)C(C)C)CSSC[C@@H](C(=O)O)NC1=O |  | RNA-seq, measured: Rd3 | mouse, traumatic brain injury model, frontal cortex and hippocampus | dose not given | relative to: TBI alone | log2 fold change | -2.26 |
| O=C1Nc2cc3[nH]nc(-c4ccncc4)c3cc2CN1Cc1ccccc1 |  | measured: Nausea | patients with advanced solid tumours | intravenous, dose not given, all schedules |  | patients with TEAE | 35% |
